Assay results of several laboratories.
Every numbered part comes from another study and shows a few of its results, in no order.
UniProt P19525, sequence (whole entry, looked up): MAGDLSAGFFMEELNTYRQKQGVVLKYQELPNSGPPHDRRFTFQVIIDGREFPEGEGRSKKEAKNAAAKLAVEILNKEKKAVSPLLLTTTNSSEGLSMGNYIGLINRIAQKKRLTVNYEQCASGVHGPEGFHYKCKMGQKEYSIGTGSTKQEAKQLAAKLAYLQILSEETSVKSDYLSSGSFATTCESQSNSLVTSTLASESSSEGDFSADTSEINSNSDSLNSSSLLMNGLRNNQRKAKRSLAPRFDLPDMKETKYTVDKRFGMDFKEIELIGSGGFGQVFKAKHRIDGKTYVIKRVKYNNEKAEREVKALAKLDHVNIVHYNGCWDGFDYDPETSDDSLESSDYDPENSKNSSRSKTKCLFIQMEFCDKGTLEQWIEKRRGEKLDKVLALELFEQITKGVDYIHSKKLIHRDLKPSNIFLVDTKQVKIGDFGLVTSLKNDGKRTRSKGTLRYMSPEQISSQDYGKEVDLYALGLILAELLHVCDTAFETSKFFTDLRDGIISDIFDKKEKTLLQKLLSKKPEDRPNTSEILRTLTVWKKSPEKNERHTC
UniProt P07333, sequence (whole entry, looked up): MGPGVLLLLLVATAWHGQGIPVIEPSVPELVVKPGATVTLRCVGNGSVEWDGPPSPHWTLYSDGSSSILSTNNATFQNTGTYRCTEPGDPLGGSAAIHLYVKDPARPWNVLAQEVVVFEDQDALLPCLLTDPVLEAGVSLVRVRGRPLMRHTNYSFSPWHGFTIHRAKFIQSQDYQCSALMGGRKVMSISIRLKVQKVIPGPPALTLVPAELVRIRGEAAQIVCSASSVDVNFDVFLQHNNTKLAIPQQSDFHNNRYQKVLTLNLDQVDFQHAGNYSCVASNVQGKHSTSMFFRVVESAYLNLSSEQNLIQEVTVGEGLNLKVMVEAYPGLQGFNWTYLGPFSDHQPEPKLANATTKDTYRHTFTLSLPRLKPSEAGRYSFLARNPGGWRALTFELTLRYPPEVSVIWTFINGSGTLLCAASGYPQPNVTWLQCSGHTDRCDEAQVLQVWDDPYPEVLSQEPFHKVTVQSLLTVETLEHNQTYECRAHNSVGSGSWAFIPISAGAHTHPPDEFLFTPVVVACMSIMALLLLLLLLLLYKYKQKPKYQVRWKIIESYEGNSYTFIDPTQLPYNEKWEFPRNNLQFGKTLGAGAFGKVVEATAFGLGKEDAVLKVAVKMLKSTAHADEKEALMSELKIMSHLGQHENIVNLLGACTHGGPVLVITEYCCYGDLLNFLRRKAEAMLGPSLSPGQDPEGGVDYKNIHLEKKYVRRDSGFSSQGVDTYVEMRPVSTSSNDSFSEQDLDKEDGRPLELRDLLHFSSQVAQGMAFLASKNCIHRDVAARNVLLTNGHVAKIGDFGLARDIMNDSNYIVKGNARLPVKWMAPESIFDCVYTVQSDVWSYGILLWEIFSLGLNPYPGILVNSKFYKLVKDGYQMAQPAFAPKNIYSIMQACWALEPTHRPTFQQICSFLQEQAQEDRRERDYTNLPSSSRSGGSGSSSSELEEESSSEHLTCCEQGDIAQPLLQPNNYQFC
UniProt P16591, sequence (whole entry, looked up): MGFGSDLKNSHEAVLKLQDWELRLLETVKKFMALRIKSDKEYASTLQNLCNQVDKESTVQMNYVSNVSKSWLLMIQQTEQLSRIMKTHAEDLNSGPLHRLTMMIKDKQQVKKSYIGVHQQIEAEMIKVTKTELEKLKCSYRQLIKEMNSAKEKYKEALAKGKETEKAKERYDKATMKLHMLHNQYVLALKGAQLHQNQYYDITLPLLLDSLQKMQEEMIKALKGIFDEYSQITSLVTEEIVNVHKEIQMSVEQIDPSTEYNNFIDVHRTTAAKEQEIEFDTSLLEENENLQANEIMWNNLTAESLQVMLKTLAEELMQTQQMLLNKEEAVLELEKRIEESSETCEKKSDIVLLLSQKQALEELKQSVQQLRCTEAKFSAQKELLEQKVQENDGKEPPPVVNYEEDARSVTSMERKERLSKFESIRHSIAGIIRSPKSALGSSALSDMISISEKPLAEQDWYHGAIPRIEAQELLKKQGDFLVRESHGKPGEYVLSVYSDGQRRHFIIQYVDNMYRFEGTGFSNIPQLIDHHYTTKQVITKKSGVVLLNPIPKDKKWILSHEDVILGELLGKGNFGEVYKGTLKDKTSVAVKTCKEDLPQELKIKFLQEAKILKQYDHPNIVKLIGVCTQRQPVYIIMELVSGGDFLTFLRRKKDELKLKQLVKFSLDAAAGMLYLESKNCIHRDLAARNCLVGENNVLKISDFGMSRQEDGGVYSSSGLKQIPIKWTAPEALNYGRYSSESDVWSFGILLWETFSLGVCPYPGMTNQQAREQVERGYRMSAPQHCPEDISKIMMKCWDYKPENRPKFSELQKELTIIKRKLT

Series 1
Compound: CN(C)CC#Cc1ccc(OCCCc2sc(N3CCc4cccc(C(=O)Nc5nc6ccccc6s5)c4C3)nc2C(=O)O)c(F)c1
Effect on: cell-free assay
Technique: competition with immobilised ligand
Concentration: 1 µM
For FER (Homo sapiens, UniProt P16591): remaining binding read 100%.
The remaining binding was 89% (EGFR (Homo sapiens, UniProt P00533, A750P/del747-749)).
EIF2AK2 (Homo sapiens, UniProt P19525) — remaining binding: 100%.
It gave 87% for remaining binding (Macrophage colony-stimulating factor 1 receptor, autoinhibited (CSF1R, Homo sapiens, UniProt P07333)).

Series 2
SMILES: COc1cc(C(=O)N2CCC(N3CCN(C)CC3)CC2)ccc1Nc1ncc2c(n1)N(C)c1ccccc1C(=O)N2C
Effect on: probe labelling
For OSR1 (human); KiNativ ATP probe; human PBMC lysate; concentration not given, LYS2 labelled site: inhibition read 25.3%.
mouse MAP3K5/MAP3K6/MAP3K7; KiNativ ATP probe; mouse brain lysate; 0.1 µM, LYS1 site IAIkEIPER — inhibition: -4.3%.
For MAP3K2 and MAP3K3 (mouse); KiNativ, item: DIkGANILR peptide, LYS2 site; brain tissue lysate (mouse); 1 µM, added: ADP acyl-phosphate probe: inhibition read -2.1%.
It gave 1.7% for inhibition (PIP5K1C (mouse); KiNativ, item: ATP site peptide; brain tissue lysate (mouse); 0.1 µM, added: ATP acyl-phosphate probe).

Series 3
Species: mouse
Matrix: microsomes or S9
Concentration: 2 µM
Time: 0.5 h
With CC(C)CCC(C(N)=O)C1=NC(C)(C)Cc2ccccc21 (stereo not drawn) the remaining compound was 6%.
For Cc1nc2c(cc1-c1ccccc1)[nH]c(=O)n2Cc1ccc(-c2cc(CC(C)C)sc2S(=O)(=O)NC(C)(C)C)cc1, the remaining compound was 17.7%.
CCOC(=O)C1=C(c2ccccc2)c2cc3c(cc2C1=O)OCO3 gave a remaining compound of 3.58%.
COc1ccc(-c2nc(-c3nnn4c3COC(c3ccc(C)cc3)C4)no2)cn1 (stereo not drawn) has a remaining compound of 32.8%.
With CC(=O)NCCOc1c(C)cc(S(N)(=O)=O)cc1C the remaining compound was 60.3%.
Cn1cnc2c(sc3nc4c(cc32)COC(C)(C)C4)c1=O gave a remaining compound of 72.6%.

Series 4
Target: Tyrosine-protein kinase Tec (TEC, Homo sapiens, UniProt P42680)
Effect on: enzyme activity
Action: inhibitor
Concentration: 0.5 µM
Relative to: control
Construct (P42680 1-631): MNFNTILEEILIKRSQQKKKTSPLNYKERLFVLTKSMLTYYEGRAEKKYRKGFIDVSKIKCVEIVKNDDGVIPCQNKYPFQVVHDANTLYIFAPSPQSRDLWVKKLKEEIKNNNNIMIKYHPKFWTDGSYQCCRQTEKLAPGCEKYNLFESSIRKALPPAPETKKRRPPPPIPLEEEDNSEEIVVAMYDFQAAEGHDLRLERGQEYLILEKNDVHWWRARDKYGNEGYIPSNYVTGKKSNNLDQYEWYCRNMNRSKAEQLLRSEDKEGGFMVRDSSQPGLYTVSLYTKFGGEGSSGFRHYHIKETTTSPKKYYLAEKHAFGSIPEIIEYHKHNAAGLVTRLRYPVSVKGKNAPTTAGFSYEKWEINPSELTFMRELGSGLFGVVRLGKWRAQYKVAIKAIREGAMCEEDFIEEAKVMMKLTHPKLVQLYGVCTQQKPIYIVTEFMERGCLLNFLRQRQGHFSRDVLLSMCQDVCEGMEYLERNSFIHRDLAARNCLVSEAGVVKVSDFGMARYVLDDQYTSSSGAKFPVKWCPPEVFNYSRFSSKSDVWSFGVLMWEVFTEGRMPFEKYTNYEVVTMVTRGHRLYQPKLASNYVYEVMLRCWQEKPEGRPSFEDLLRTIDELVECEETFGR
CC(C)[C@H](CO)Nc1nc(Nc2cc(N)cc(Cl)c2)c2ncn(C(C)C)c2n1 gave a remaining activity of 130%.
O=C(O)c1ccc2c3c1cccc3c(=O)n1c3ccccc3nc21 gave a remaining activity of 123%.
For CO[C@H]1C[C@@H]2CC[C@@H](C)[C@@](O)(O2)C(=O)C(=O)N2CCCC[C@H]2C(=O)O[C@H]([C@H](C)C[C@@H]2CC[C@@H](O)[C@H](OC)C2)CC(=O)[C@H](C)/C=C(\C)[C@@H](O)[C@@H](OC)C(=O)[C@H](C)C[C@H](C)/C=C/C=C/C=C/1C, the remaining activity was 138%.
For O=C1NC(=O)C(c2cn(CCCO)c3ncccc23)=C1c1cnccn1, the remaining activity was 120%.
Cn1sc(=O)n(Cc2ccccc2)c1=O has a remaining activity of 117%.
The remaining activity of Cc1ccc(NC(=O)c2ccc(CN3CCN(C)CC3)cc2)cc1Nc1nc(-c2cccnc2)cs1 is reported as 83.2%.
For COc1ccc(OC)c2c(=S)c3ccccc3[nH]c12, the remaining activity was 147%.
With NCCNc1ncc(C(N)=O)c(Nc2cccc(C(F)(F)F)c2)n1 the remaining activity was 125%.
For Nc1[nH]nc2nc3ccccc3nc12, the remaining activity was 108%.
N#CC(C#N)=C(N)/C(C#N)=C/c1ccc(O)cc1 has a remaining activity of 94.7%.

For quick reference, copied from above (series 4):
Cn1sc(=O)n(Cc2ccccc2)c1=O has a remaining activity of 117%.
The remaining activity of Cc1ccc(NC(=O)c2ccc(CN3CCN(C)CC3)cc2)cc1Nc1nc(-c2cccnc2)cs1 is reported as 83.2%.
